Published values from different studies.
Compare with care: the assays were run in different laboratories. ± gives the spread as reported.

O=C(Cn1cnc2ccccc2c1=O)Nc1ccccc1O
IC50 (HepG2.2.15; cell growth or viability, crystal violet; 48 h): > 100 µM

N=C(N)NCCC[C@H](NC(=O)[C@H](Cc1c[nH]c2ccccc12)NC(=O)[C@H](CCC(N)=O)NC(=O)[C@H](Cc1c[nH]c2ccccc12)NC(=O)[C@@H](N)CCCNC(=N)N)C(=O)N[C@@H](Cc1c[nH]c2ccccc12)C(=O)N[C@@H](CCC(N)=O)C(=O)N[C@@H](Cc1c[nH]c2ccccc12)C(=O)N[C@@H](CCCN)C(N)=O
IC50 (HT-29; cell growth or viability, MTT): 109 µM

CC[C@H](C)[C@H](NC(=O)[C@H](CCCCN)NC(=O)[C@H](CCCCN)NC(=O)[C@H](CC(C)C)NC(=O)[C@@H](NC(=O)[C@H](CCCCN)NC(=O)[C@H](C)NC(=O)[C@H](C)NC(=O)[C@@H](NC(=O)CNC(=O)[C@H](C)NC(=O)[C@@H](NC(=O)[C@@H](NC(=O)[C@@H]1CCCN1C(=O)[C@H](Cc1ccccc1)NC(=O)[C@@H](N)Cc1ccccc1)[C@@H](C)CC)C(C)C)C(C)C)C(C)C)C(=O)N[C@@H](Cc1ccccc1)C(=O)N[C@H]1CSSC[C@@H](C(=O)O)NC(=O)[C@H](CCCCN)NC(=O)[C@H](CCCCN)NC(=O)[C@H](CO)NC(=O)[C@H]([C@@H](C)CC)NC(=O)[C@H]([C@@H](C)O)NC1=O
IC50 (H838; cell viability, MTT): 6.88 µM

O=S(=O)([O-])[O-].[Cu+2]
IC50 (Caco-2 monolayers; transepithelial resistance; 48 h, repeated dosing): 578 µM

N.N.O=C([O-])C1(C(=O)[O-])CCC1.[Pt+2]
IC50 (CH1; cell viability, MTT; 96 h): 0.81 ± 0.17 µM

CC(C)[C@@H]1NC(=O)[C@H](CCCCN)NC(=O)[C@@H](Cc2c[nH]c3ccccc23)NC(=O)[C@H](Cc2ccc(O)cc2)NC(=O)[C@@H](NC(=O)[C@H](N)Cc2ccc3ccccc3c2)CSSC[C@@H](C(=O)N[C@H](C(N)=O)[C@@H](C)O)NC1=O
IC50 (NCI-H720; cell proliferation, MTT; 72 h): 6.5e-06 µM

C/C=C(C)/C=C/C=C/[C@H](OC)[C@@H](C)[C@@H](OC)[C@@H](C)CCc1oc2c(O)c(OC)cc(OC)c2c(=O)c1C
IC50 (HEK293; oxygen consumption): 0.058 ± 0.051 µM

Nc1nc2[nH]c(CCCCc3ccc(C(=O)N[C@@H](CCC(=O)O)C(=O)O)nc3)cc2c(=O)[nH]1
IC50 (IGROV-1 knockdown cells; cell growth): 0.019 to 0.138 µM

C[C@H](NP(=O)(N[C@@H](C)C(=O)OCc1ccccc1)OC[C@H]1O[C@@H](n2cnc(C(N)=O)c2N)[C@H](O)[C@@H]1O)C(=O)OCc1ccccc1
IC50 (human T-lymphocyte; cell growth or viability; 72 h): > 250 µM

CN1CCC2(CC1)c1ccccc1N(Cc1ccc(C(=O)NO)cc1)C2c1ccccc1F (racemic)
IC50 (IPF patient basal cells; bronchosphere formation, 3D organoid and MTT; 14 days): 0.00331 µM

O=C1C2=C(OC(Cn3cc(C[Se]c4ccccc4)nn3)C2)C(=O)c2ccccc21 (stereo not drawn)
IC50 (six human cancer cell lines; MTT; 72 h, range over cell lines): 0.62 to 2.42 µM

N.N.[Cl][Pt][Cl]
IC50 (Fem-X; cell growth or viability): 4.7 µM

N.N.[Cl][Pt][Cl]
IC50 (H838; cell viability, MTT; 4 h, with: cimetidine 3 mmol/L): 81.3 ± 11.5 µM

COc1ccc(NC(=O)Cn2cnc3ccccc3c2=O)c(N)c1
IC50 (HEK293; cell growth or viability, crystal violet; 48 h): > 100 µM

CC(/C=C/C(C)=C/[C@@H]1Cc2nc(cs2)CC[C@@H](N)CC(=O)O[C@@H](C)C/C(C)=C/C=C\C(=O)O1)=C\CN(C)C
IC50 (primary CLL cells; apoptosis, annexin V/PI staining; 24 h, 10% human plasma): 0.33 ± 0.25 µM

[Cl][Cd][Cl]
IC50 (Caco-2 monolayers; viability, MTT; 96 h, repeated daily dosing): 34 µM

C#CC[C@H](N)C(=O)N[C@@H](C)C(=O)N1CCC[C@H]1C(=O)N1CCC[C@H]1C(=O)NCC(=O)N[C@@H](CCCN)C(=O)N[C@@H](CCCNC(=N)N)C(=O)N[C@@H](CC(C)C)C(=O)N[C@@H](CCCNC(=N)N)C(=O)N[C@@H](CO)C(=O)NCC(=O)N[C@@H](CCCNC(=N)N)C(=O)N[C@@H](CO)C(=O)N[C@H](C(=O)NCC(=O)N[C@@H](C)C(=O)N1CCC[C@H]1C(=O)N[C@@H](CC(C)C)C(=O)N[C@H](C(=O)N[C@@H](CCCNC(=N)N)C(=O)NCC(=O)N[C@@H](CO)C(N)=O)[C@@H](C)O)[C@@H](C)O
IC50 (HEK293; cell growth or viability, MTT): > 200 µM

NC(=S)N/N=C/C=N/NC(N)=S
IC50 (HeLa; cell growth or viability, MTT): 0.067 µM

Cc1ccc(C(C)C)cc1.[Cl][Ru]([Cl])[PH]12CN3CN(CN(C3)C1)C2
IC50 (A2780; cell growth or viability, MTT): > 200 µM

N.N.[Cl][Pt][Cl]
IC50 (NIH3T3; cell viability, MTT; 24 h): > 50 µM

C=C(C)C1CC=C(COC(=O)CCC(=O)OC2OC3OC4(C)CCC5C(C)CCC(C2C)C35OO4)CC1 (stereo not drawn)
IC50 (RPMI-7951; cell viability, MTT; 24 h, with: deferoxamine 20 µM, 1 h before): 2.95 ± 0.7 µM

N.N.[Cl][Pt][Cl]
IC50 (MRC5; cell growth or viability, resazurin): 33.7 µM

N.N.[Cl][Pt][Cl]
IC50 (human iPSC-derived sensory neurons; neurite total length, high-content imaging; 48 h): 0.005 µM

C#CC[C@H](NC(=O)CNC(=O)CNC(=O)[C@H](Cc1ccc(O)cc1)NC(=O)[C@H](CCCNC(=N)N)NC(=O)[C@H](CCC(N)=O)NC(=O)[C@@H]1CCCN1C(=O)[C@H](CCC(N)=O)NC(=O)[C@H](Cc1ccc(O)cc1)NC(=O)[C@@H](NC(=O)[C@H](CCCNC(=N)N)NC(=O)[C@@H]1CCCN1C(=O)[C@H](CCCNC(=N)N)NC(=O)[C@H](CC(C)C)NC(=O)[C@H](CC(N)=O)NC(=O)[C@H](Cc1ccc(O)cc1)NC(=O)CNC(=O)CN)[C@@H](C)O)C(N)=O
IC50 (HEK293; cell growth or viability, MTT): > 200 µM

Cc1nccn1CC1CCc2c(c3ccccc3n2C)C1=O (stereo not drawn)
IC50 (293FT; cell viability): > 15 µM

COc1ccc(NC(=O)Cn2cnc3ccccc3c2=O)c([N+](=O)[O-])c1
IC50 (HEK293; cell growth or viability, crystal violet; 48 h): > 100 µM

CC/C(=C(\c1ccccc1)c1ccc(OCCNC)cc1)c1ccccc1
IC50 (cultured mouse DRG neurons; action potential firing frequency, current clamp; 2 to 4 min, with: 80 pA current injection): 0.119 µM

COc1c(O)cc2oc3cc(O)c(CC=C(C)C)c(O)c3c(=O)c2c1CC=C(C)C
IC50 (HT-29; cell growth or viability, MTT; 24 h): 26 µM

trans,trans,trans-[Pt(N3)2(OH)2(NH3)(py)]
IC50 (HaCaT; phototoxicity; with: blue light λmax 420 nm): 85.9 µM

N#CC(=C(/N)Sc1ccccc1N)/C(C#N)=C(/N)Sc1ccccc1N
IC50 (HeLa; H1R promoter reporter gene; p65 construct, region B1 only, pretreatment 1 h, with: PMA 100 nM for 10 h): 0.43 µM

lead
IC50 (U-251 empty vector transfected; cell growth): 4.8 µM

O=C(Cn1cnc2ccccc2c1=O)NCc1cccnc1
IC50 (HepG2.2.15; cell growth or viability, crystal violet; 48 h): 52 µM

CC(C)C[C@H](NC(=O)[C@H](CCCCN)NC(=O)[C@H](CCCCN)NC(=O)[C@H](CC(C)C)NC(=O)[C@H](CC(C)C)NC(=O)[C@H](CCCCN)NC(=O)[C@H](CCCCN)NC(=O)[C@H](CC(C)C)NC(=O)[C@H](CC(C)C)NC(=O)[C@H](CCCCN)NC(=O)[C@H](CCCCN)NC(=O)[C@H](CC(C)C)NC(=O)[C@@H](N)CC(C)C)C(=O)N[C@@H](CCC(=O)O)C(N)=O
IC50 (HCCC9810; cell growth or viability, CCK-8): < 6 µM

CC(C)c1ccc2c(c1)CC[C@H]1[C@](C)(CN)CCC[C@]21C
IC50 (C8161.Cl 9 melanoma; cell viability, MTS; 24 h): 6.69 ± 0.83 µM

N=C(N)c1ccc(OCCCCCOc2ccc(C(=N)N)cc2)cc1
IC50 (293FT; cell viability): 0.08 µM

C[C@H]1C[C@H]2[C@@H]3CCC4=CC(=O)C=C[C@]4(C)[C@@]3(Cl)[C@@H](O)C[C@]2(C)[C@@]1(O)C(=O)CO
IC50 (H2030 (EGFR wild type); cell viability, Alamar Blue; 120 h): > 10 µM

C[n+]1cc2c3c(ccc2c2ccc4cc5c(cc4c21)OCO5)OCO3
IC50 (LAPC4; AR transcriptional activity, antagonist, PSA promoter luciferase; 24 h): 0.5 µM

COc1cc2c(c(OC)c1OC)-c1ccc(N)c(=O)cc1[C@@H](NC(C)=O)CC2
IC50 (MCF7 MT1-MMP negative; cell viability, MTT; 24 h exposure, read 96 h post treatment): 0.064 ± 0.028 µM

Cc1c2oc3c(C)ccc(C(=O)N[C@@H]4C(=O)N[C@H](C(C)C)C(=O)N5CCC[C@H]5C(=O)N(C)CC(=O)N(C)[C@@H](C(C)C)C(=O)O[C@@H]4C)c3nc-2c(C(=O)N[C@@H]2C(=O)N[C@H](C(C)C)C(=O)N3CCC[C@H]3C(=O)N(C)CC(=O)N(C)[C@@H](C(C)C)C(=O)O[C@@H]2C)c(N)c1=O
IC50 (LAPC4; androgen receptor transcriptional activity, inhibitor; 24 h): 0.0011 µM

Cc1ccccc1-n1c(Cn2cnc3c(N)ncnc32)nc2cccc(C)c2c1=O
IC50 (Ri-1 B cell lymphoma; inhibitor, refers to: Akt Ser473 phosphorylation; 30 min preincubation, 37 °C, with: anti-IgM 1 h): > 7.8 µM

N.N.[Cl][Pt][Cl]
IC50 (PC-3; cell growth or viability, SRB): 18.2 µM

N.N.[Cl][Pt][Cl]
IC50 (L-O2; MTT; 48 h): 3.64 ± 0.1 µM

N.N.[Cl][Pt][Cl]
IC50 (LN-308; cell viability, trypan blue exclusion; 48 h, dark): 8.8 ± 0.7 µM

N.N.[Cl][Pt][Cl]
IC50 (SMMC-7721; cell growth or viability, CCK-8): 9.32 µM

ClC1=C(Cl)C2(Cl)C3C4C=CC(C4)C3C1(Cl)C2(Cl)Cl (stereo not drawn)
IC50 (PC6-3; cell viability, MTT; 4 h): 46 µM

COCC1(CO)C(=O)C2CCN1CC2 (stereo not drawn)
IC50 (SKM-1; cell proliferation; 3 d): 0.5 µM

S=C([S][Au][PH](c1ccccc1)(c1ccccc1)c1ccccc1)n1cccn1
IC50 (PHA-P stimulated human PBMC; cell growth, MTT; 3 d): 8.55 ± 3.37 µM

CCN.CCN.O=C([O-])CC(=O)[O-].O=C([O-])CC(=O)[O-].[Pt+4]
IC50 (CH1; cell viability, MTT; 96 h): 222 ± 14 µM

N.N.[Cl][Pt][Cl]
IC50 (HFF; cell growth or viability, MTT; 24 h, dark): 82 µM

CC(/C=C/C(C)=C/[C@@H]1Cc2nc(cs2)CCCCC(=O)O[C@@H](C)C/C(C)=C/C=C\C(=O)O1)=C\CN(C)C
IC50 (primary CLL cells; apoptosis induction, annexin V/PI staining; 24 h, 10% autologous patient plasma): 6.88 µM

O=S(=O)([O-])C(F)(F)F.OCc1ccnc(-c2cc(CO)ccn2)c1.[Ru+2].c1cc[cH-]c1.c1ccc(P(c2ccccc2)c2ccccc2)cc1
IC50 (HEK293 empty vector control; cell growth, MTT; 48 h): < 7 µM
